# Assay results from different studies.
# RPS6KA3: Ribosomal protein S6 kinase alpha-3 (RPS6KA3, Homo sapiens, UniProt P51812)
# Chain of UniProt P51812 (whole entry, looked up): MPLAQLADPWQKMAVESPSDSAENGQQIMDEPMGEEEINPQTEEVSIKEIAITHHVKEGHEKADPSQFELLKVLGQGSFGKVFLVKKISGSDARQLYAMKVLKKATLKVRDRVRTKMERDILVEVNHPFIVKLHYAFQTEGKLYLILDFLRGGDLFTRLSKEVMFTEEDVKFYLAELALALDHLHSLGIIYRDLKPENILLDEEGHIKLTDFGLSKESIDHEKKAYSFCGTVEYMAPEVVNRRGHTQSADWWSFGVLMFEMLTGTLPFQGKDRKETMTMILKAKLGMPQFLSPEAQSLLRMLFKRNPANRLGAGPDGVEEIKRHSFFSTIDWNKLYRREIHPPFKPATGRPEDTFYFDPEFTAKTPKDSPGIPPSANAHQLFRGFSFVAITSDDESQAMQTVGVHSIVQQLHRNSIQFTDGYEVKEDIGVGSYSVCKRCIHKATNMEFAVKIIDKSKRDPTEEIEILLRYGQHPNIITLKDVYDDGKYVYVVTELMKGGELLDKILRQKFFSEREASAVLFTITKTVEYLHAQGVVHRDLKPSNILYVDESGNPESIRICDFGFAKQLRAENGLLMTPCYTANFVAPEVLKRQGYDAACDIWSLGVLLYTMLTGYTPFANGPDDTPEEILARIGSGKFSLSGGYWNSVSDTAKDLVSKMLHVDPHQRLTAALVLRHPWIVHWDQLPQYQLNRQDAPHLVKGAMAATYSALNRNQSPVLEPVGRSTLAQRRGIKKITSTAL
# RPS6KA3 N-terminal kinase domain: Ribosomal protein S6 kinase alpha-3, N-terminal kinase domain (RPS6KA3, Homo sapiens, UniProt P51812)
SMILES,target,test,test system,setting,how to read,measurement,result
CN(C)[C@H]1C[C@@]23CC[C@@]4(O2)C(=CC[C@]2(C)[C@@H](c5ccc6ccncc6c5)CC[C@H]24)C=C3[C@@H](O)[C@@H]1O,"Ribosomal protein S6 kinase alpha-3, C-terminal kinase domain (RPS6KA3, Homo sapiens, UniProt P51812)","ATP probe labelling, inhibitor, KiNativ profiling",,0.1 µM,,inhibition,-7.8%
CC(C)[C@H]1NC(=O)C[C@H]2/C=C/CCSSC[C@@H](NC1=O)C(=O)N[C@H](Cc1cccc3ccccc13)C(=O)NCC(=O)O2,RPS6KA3,"enzyme activity, inhibitor",,10 µM,,inhibition,1.4%
O=C1NC(=O)c2c1c1cc(F)c[n+]3c1c1c2c2cc(O)ccc2[n]1[Ru-4]312([N]=C=S)[S+]3CC[S+]1CC[S+]2CC3 (stereo not drawn),RPS6KA3,enzyme activity,,"100 nM, human enzyme, added: 10 µM ATP",reference: untreated,remaining activity,6%
C=CC(=O)Nc1cc(-c2nn(C3CCC(N4CCN(C(C)=O)CC4)CC3)c3ncnc(N)c23)ccc1Oc1ccccc1 (stereo not drawn),RPS6KA3 N-terminal kinase domain,"inhibitor, KiNativ profiling",biochemical,2 µM,,inhibition,-4.6%
C[C@H](NCc1ccc(-c2ccc(C(F)(F)F)cc2)cc1)C(N)=O,RPS6KA3,"cell-free assay, competition with immobilised ligand",,1 µM,,inhibition,0%
O=C(N[C@@H]1c2ccccc2C[C@H]1N1CCCC1)c1ccc(-c2ccnc3[nH]ccc23)nc1,RPS6KA3 N-terminal kinase domain,"binding, competition with immobilised ligand",,3 µM,,remaining binding,26%
Nc1ccc(/C=C/C(=O)N2CCc3c(oc4c(-c5ccc(F)cc5)cc(-c5ccc(C(=O)N6CCC(F)(F)CC6)cn5)cc34)C2)cn1,RPS6KA3 N-terminal kinase domain,"binding, competition with immobilised ligand",,1 µM,,remaining binding,100%
CCOC(=O)[C@@H]1Cc2c(cc([N+](=O)[O-])cc2[N+](=O)[O-])[C@H](O)[C@]12C(=O)Nc1ccc(Br)cc12,RPS6KA3,"binding, competition with immobilised ligand",,0.1 µM,,remaining binding,84%
CS(C)(=O)=Nc1ccc(-c2ccc(-c3nc4cc(O[C@@H]5CO[C@H]6[C@@H]5OC[C@H]6O)[nH]c4cc3F)cc2)cc1,RPS6KA3,"enzyme activity, inhibitor",,10 µM,,inhibition,-3%

# A few entries again:
SMILES,target,test,test system,setting,how to read,measurement,result
O=C(N[C@@H]1c2ccccc2C[C@H]1N1CCCC1)c1ccc(-c2ccnc3[nH]ccc23)nc1,RPS6KA3 N-terminal kinase domain,"binding, competition with immobilised ligand",,3 µM,,remaining binding,26%
